# Measured values pooled from the literature.
# Each line is one published result; not all experiments were run side by side. Several values in a cell are separate wells, animals, samples, runs or records.
Compound,organism,assay,test system,conditions,scale,quantity,result
CCC1(c2ccc(N)cc2)CCC(=O)NC1=O (stereo not shown),human coronavirus OC43,virus-induced cell killing,MRC-5,maximum over 10 doses,,maximum inhibition,0.126%
CC[C@H](C)[C@H](NC(=O)[C@H](CC(C)C)NC(=O)[C@H](CC(C)C)NC(=O)[C@H](CC(C)C)NC(=O)[C@@H](NC(=O)[C@@H](NC(=O)[C@H](CCCCN)NC(=O)[C@H](CCCCN)NC(=O)[C@H](CCCCN)NC(=O)[C@H](CCCCN)NC(=O)[C@H](CC(C)C)NC(=O)[C@H](CCCNC(=N)N)NC(=O)[C@H](CO)NC(=O)[C@@H](N)CO)[C@@H](C)CC)C(C)C)C(=O)N[C@@H](CO)C(=O)N[C@@H](CCCCN)C(=O)N[C@@H](CCCCN)C(=O)N[C@@H](CCCCN)C(=O)N[C@@H](CCCCN)C(N)=O,"Acinetobacter baumannii, Enterococcus faecalis",,,,,MIC range,4 to 8 µM
CC(O)(CS(=O)(=O)c1ccc(F)cc1)C(=O)Nc1ccc(C#N)c(C(F)(F)F)c1 (stereo not shown),human coronavirus OC43,virus-induced cell killing,MRC-5,maximum over 10 doses,,maximum inhibition,0%
CN(C)[C@@H]1C(O)=C(C(N)=O)C(=O)[C@@]2(O)C(O)=C3C(=O)c4c(O)cccc4[C@@](C)(O)[C@H]3C[C@@H]12,Salmonella enterica,,,"20 h, pH 7",,MIC,1 µg/mL
COc1cc(NC(=O)Cn2ccc3cc(F)c(-c4cnn(C)c4)cc32)cc(OC)c1OC,Plasmodium falciparum,parasite growth,Dd2 PfATP4 F156L,,baseline: parental Dd2,EC50 shift,10 fold
CS(=O)(=O)Nc1ncn(-c2cc(F)c(COc3ccc(OS(=O)(=O)F)cc3)c(F)c2)n1,Mycobacterium tuberculosis,,clinical isolate,,,MIC,0.063 µM
CO/N=C(\C(=O)N[C@@H]1C(=O)N2C(C(=O)O)=C(CSC(=O)c3ccco3)CS[C@H]12)c1csc(N)n1,Salmonella enterica,,,"20 h, pH 7.2",,MIC,1 µg/mL
OC(Cn1cncn1)(Cn1cncn1)c1ccc(F)cc1F,Saccharomyces cerevisiae,OD600,"Pdr5-deficient, empty vector",10 µg/mL,baseline: no-drug control,relative growth,1.28% and 2% and 0.714%
COc1cc(Cc2cnc(N)nc2N)cc(OC)c1OC,Salmonella enterica,,,"20 h, pH 7.2",,MIC,0.125 µg/mL
C[C@]12CCC(=O)C(O)=C1CC[C@@H]1[C@@H]2CC[C@]2(C)C(=O)CC[C@@H]12,human coronavirus OC43,virus-induced cell killing,MRC-5,screen,,maximum inhibition,7.46%

# Some of these lines once more:
Compound,organism,assay,test system,conditions,scale,quantity,result
CC[C@H](C)[C@H](NC(=O)[C@H](CC(C)C)NC(=O)[C@H](CC(C)C)NC(=O)[C@H](CC(C)C)NC(=O)[C@@H](NC(=O)[C@@H](NC(=O)[C@H](CCCCN)NC(=O)[C@H](CCCCN)NC(=O)[C@H](CCCCN)NC(=O)[C@H](CCCCN)NC(=O)[C@H](CC(C)C)NC(=O)[C@H](CCCNC(=N)N)NC(=O)[C@H](CO)NC(=O)[C@@H](N)CO)[C@@H](C)CC)C(C)C)C(=O)N[C@@H](CO)C(=O)N[C@@H](CCCCN)C(=O)N[C@@H](CCCCN)C(=O)N[C@@H](CCCCN)C(=O)N[C@@H](CCCCN)C(N)=O,"Acinetobacter baumannii, Enterococcus faecalis",,,,,MIC range,4 to 8 µM
